Measurements from different studies.
Each numbered part is a random draw from the data of one study; scales do not carry over between parts. Positions count from the first letter of the parent shown.

Sample 1 — target: UBE2W UBC core domain (UniProt Q96B02); technique: yeast two-hybrid; sample: yeast; notes: mostly zero background; relative to: not given; direction: higher = stronger interaction
UniProt Q96B02, sequence (whole entry, looked up): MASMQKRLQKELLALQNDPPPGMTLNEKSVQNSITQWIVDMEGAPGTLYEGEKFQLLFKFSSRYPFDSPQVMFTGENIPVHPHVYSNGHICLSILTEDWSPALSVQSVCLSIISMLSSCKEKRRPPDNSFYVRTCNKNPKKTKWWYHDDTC
B1: DEF8 RING domain (UniProt Q6ZN54); chain AGRLGCSLTEIHTLFAKHIKLDCERCQAKGFVCELCREGDVLFPFDSHTSVCADCSAVFHRDCYYDNSTTCPKCARLSLRK
B2: RNF187 RING domain (UniProt Q5TA31); chain ALPAGPAEAACALCQRAPREPVRADCGHRFCRACVVRFWAEEDGPFPCPECADDCWQRAVEP
B3: ANAPC11 RING domain (UniProt Q9NYG5); chain GICRMAFNGCCPDCKVPGDDCPLVWGQCSHCFHMHCILKWLHAQQVQQHCPMCRQEWKFKE
B4: TRIM26 RING domain (UniProt Q12899); chain PLRSLEEEVTCSICLDYLRDPVTIDCGHVFCRSCTTDVRPISGSRPVCPLCKKPFKKENIRP
B5: RNF2 RING domain (UniProt Q99496); chain SPRSLHSELMCPICLDMLKNTMTTKECLHRFCADCIITALRSGNKECPTCRKKLVSKRSLR
B6: TRIM54 RING domain (UniProt Q9BYV2); chain SMDNLEKQLICPICLEMFSKPVVILPCQHNLCRKCANDVFQASNPLWQSRGSTTVSSGGRFRCPSCRHEVVLDRHGV
B7: TRIM31 RING domain (UniProt Q9BZY9); chain FVNKLQEEVICPICLDILQKPVTIDCGHNFCLKCITQIGETSCGFFKCPLCKTSVRKNAIRF
Under “lacZ reporter activity”, `B1 (DEF8 RING domain)` is recorded as 0.
`YPEEVDDDLICHICLQALLDPLDTPCGHTYCTLCLTNFLVEKDFCPMDRKPLVLQHCKK (LNX1 RING domain (UniProt Q8TBB1))`: “lacZ reporter activity” 0.
For `B2 (RNF187 RING domain)`, “lacZ reporter activity” read 0.
`B3 (ANAPC11 RING domain)` — result for “lacZ reporter activity”: 0.
For `B4 (TRIM26 RING domain)`, “lacZ reporter activity” read 0.
For `B5 (RNF2 RING domain)`, “lacZ reporter activity” read 0.
`YCEMGSTFQLCKICAENDKDVKIEPCGHLMCTSCLTAWQESDGQGCPFCRCEIKGTEPII (CBLB RING domain (UniProt Q13191))`: “lacZ reporter activity” 0.
Under “lacZ reporter activity”, `MNDVLENELQCIICSEYFIEAVTLNCAHSFCSYCINEWMKRKIECPICRKDIKSKTYSL (RNF8 RING domain (UniProt O76064))` is recorded as 0.
For `B6 (TRIM54 RING domain)`, “lacZ reporter activity” read 0.
`B7 (TRIM31 RING domain)`: “lacZ reporter activity” 0.

Sample 2 — target: CCNE1, cyclin fold, Cln2 fusion (human); technique: yeast growth competition, sequencing; sample: yeast; notes: strong parent motif; relative to: not given; direction: higher = stronger binding; starting sequence: viral docking peptide; KGVKRKLFAEDSS
`KGVKRKLFAEHSS [D11H]` — result for “normalised enrichment score”: 6.79.
For `KGVKRDLFAEDSS [K6D]`, “normalised enrichment score” read 1.32.
`KGEKRKLFAEDSS [V3E]`: “normalised enrichment score” 1.32.
Under “normalised enrichment score”, `KGVKRILFAEDSS [K6I]` is recorded as 7.22.
`KGAKRKLFAEDSS [V3A]`: “normalised enrichment score” 7.7.
Under “normalised enrichment score”, `KGDKRKLFAEDSS [V3D]` is recorded as -0.112.
For `KGVKRKLFTEDSS [A9T]`, “normalised enrichment score” read 7.42.
`KGVKRKDFAEDSS [L7D]`: “normalised enrichment score” -0.0326.
`KGVKRKLFAFDSS [E10F]`: “normalised enrichment score” 6.19.
For `KGVKRKLRAEDSS [F8R]`, “normalised enrichment score” read 0.132.
Under “normalised enrichment score”, `KGVHRKLFAEDSS [K4H]` is recorded as 3.42.
`KGVKRKLFAADSS [E10A]` — result for “normalised enrichment score”: 7.25.
`KGVKAKLFAEDSS [R5A]`: “normalised enrichment score” 0.504.
For `KGVKRKLFLEDSS [A9L]`, “normalised enrichment score” read 7.33.

Sample 3 — technique: protein-binding microarray; molecule type: double-stranded DNA, one strand shown; sample: in vitro; concentration: 2540 nM top; notes: 60-bp whole probe; together with: salmon DNA 0.4 mg/ml; relative to: random background probes; direction: higher = stronger binding; constant ends, left off below: GCCTAGCAC … GTCTTGATTCGCTTGACGCTGCTG
Target: Interferon regulatory factor 3, full length, phosphomimetic (IRF3, Homo sapiens, UniProt Q14653, residues 1-427, S386D/S396D/S398D/S402D/T404D/S405D)
UniProt Q14653, sequence (whole entry, unmodified, looked up): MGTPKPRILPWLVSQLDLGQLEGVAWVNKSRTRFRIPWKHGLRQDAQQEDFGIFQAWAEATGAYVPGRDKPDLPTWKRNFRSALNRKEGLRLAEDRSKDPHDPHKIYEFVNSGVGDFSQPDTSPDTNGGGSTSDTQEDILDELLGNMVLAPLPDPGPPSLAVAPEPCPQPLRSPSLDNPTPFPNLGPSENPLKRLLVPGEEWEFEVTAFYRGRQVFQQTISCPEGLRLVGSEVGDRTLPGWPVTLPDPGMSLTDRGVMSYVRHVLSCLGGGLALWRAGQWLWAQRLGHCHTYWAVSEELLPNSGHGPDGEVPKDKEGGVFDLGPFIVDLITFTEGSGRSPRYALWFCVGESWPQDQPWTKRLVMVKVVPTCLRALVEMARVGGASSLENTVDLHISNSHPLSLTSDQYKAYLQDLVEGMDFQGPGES
`TTAGGACTGGGTCGCGGTTAGTGCTAG`: “fitted relative affinity” -0.786 z-score.
For `GCATTTTTCTAACCCATTGAGTGCTAG`, “fitted relative affinity” read 1.66 z-score.
`GACGATATCGGGTATCAAGACGTGCTA`: “fitted relative affinity” 0.205 z-score.
For `TGAGGACTGGGTCTCGGTTAGTGCTAG`, “fitted relative affinity” read -1.1 z-score.
`TCACGGCTCTAAACTCATACTGTGCTA` — result for “fitted relative affinity”: -0.579 z-score.
Under “fitted relative affinity”, `GACGGTATCGAGTTTCGGGACGTGCTA` is recorded as 2.34 z-score.
For `TTAGGTCTCCTTTTCCGTTAGTGCTAG`, “fitted relative affinity” read 4.57 z-score.
For `TCATTTCTGGTTCCCATACTGTGCTAG`, “fitted relative affinity” read 3.01 z-score.

Single results of other studies
`ETFA (Homo sapiens, UniProt P13804)` — result for cross-linked residues: “K301 to K767” (ARID5B (Homo sapiens, UniProt Q14865); cross-linking MS; cells; together with: BSPNO).

Repeated from above (sample 2):
For `KGVKRKLRAEDSS [F8R]`, “normalised enrichment score” read 0.132.
Under “normalised enrichment score”, `KGVHRKLFAEDSS [K4H]` is recorded as 3.42.
`KGVKRKLFAADSS [E10A]` — result for “normalised enrichment score”: 7.25.
`KGVKAKLFAEDSS [R5A]`: “normalised enrichment score” 0.504.
